{"data": "Results pooled from the literature", "note": "Compare with care: the assays were run in different laboratories. “And” joins repeats or separate records; there may be more than shown. Numbers after ± are the reported error."}
{"SMILES": "COc1ncc(-c2nc3c(n2C(C)C)[C@H](c2ccc(Cl)cc2)N(c2cc(Cl)cn(C)c2=O)C3=O)c(OC)n1", "assay": "LC-MS/MS", "test system": "human, plasma", "conditions": "oral, 350 mg, cycle 1 day 1, high-dose arm", "quantity": "Cmax", "result": "2260 ng/mL"}
{"SMILES": "C[C@H](CCC(=O)NCC(=O)O)[C@H]1CC[C@H]2[C@@H]3CC[C@@H]4C[C@H](O)CC[C@]4(C)[C@H]3C[C@H](O)[C@]12C", "test system": "human, plasma", "conditions": "endogenous control diurnal", "how to read": "reference: daily mean concentration", "quantity": "relative peak deviation", "result": "184 ± 23%"}
{"SMILES": "CCN1/C(=C/C(C)=O)Sc2ccc(F)cc21", "test system": "cynomolgus monkey", "conditions": "oral, 10 mg/kg, 1 h post-dose", "how to read": "reference: pre-dose", "quantity": "diastolic blood pressure change", "result": "104 ± 8.8%"}
{"SMILES": "OC[C@H]1O[C@@H](c2ccc(Cl)c(Cc3ccc(O[C@H]4CCOC4)cc3)c2)[C@H](O)[C@@H](O)[C@@H]1O", "test system": "Japanese type 1 diabetes patients, blood", "conditions": "2.5 mg, day 28", "how to read": "reference: baseline", "quantity": "change in Chloride", "result": "0 mEq/L"}
{"SMILES": "CCN1CCN(Cc2ccc(NC(=O)c3ccc(C)c(NC(=O)c4cncc(-c5cccs5)c4)c3)cc2C(F)(F)F)CC1", "assay": "LC-MS/MS", "test system": "C57BL/6 mouse, plasma", "conditions": "intraperitoneal, 20 mg/kg single dose, 4 h", "quantity": "mean plasma concentration", "result": "203 ng/mL"}
{"SMILES": "Cc1cc(NC2CCN(C(=O)OC3CCN(C(=O)/C=C/CN(C)C)C3)CC2)n2ncc(C(C)C)c2n1 (stereo not shown)", "assay": "CTCAE v4.0, refers to: Anemia", "test system": "patients with advanced solid tumours", "conditions": "oral, dose not given, TIW, grade 3 or higher", "quantity": "patients with TEAE", "result": "9%"}
{"SMILES": "CO[C@@H]1[C@H](OC(=O)N2CC(CCN3CCOCC3)C2)CC[C@]2(CO2)[C@H]1[C@@]1(C)O[C@@H]1CC=C(C)C", "test system": "humans", "conditions": "subcutaneous, 1.8 mg twice weekly for 4 weeks, day 28", "how to read": "reference: baseline", "quantity": "D-dimer", "result": "-0.05 ± 0.07 mg/dL"}
{"SMILES": "Cc1ccc(Sc2ccccc2N2CCNCC2)c(C)c1", "test system": "healthy adult men", "conditions": "oral, 10 mg single dose, treatment-emergent adverse events", "quantity": "eczema incidence", "result": "0%"}
{"SMILES": "Cl.[2H]C([2H])([2H])CC(=O)c1cnc(NC(=O)C2CC2)cc1Nc1cccc(-c2ncn(C([2H])([2H])[2H])n2)c1OC", "assay": "median", "test system": "human", "conditions": "oral, 20 mg twice daily, day 1, fed, liquid, multiple dose", "quantity": "Tmax", "result": "186 min"}
{"SMILES": "COc1ccc([C@@H](O)c2cc(-c3ncnc4cc(N5CCOCC5)ccc34)c(F)cc2Cl)nn1", "test system": "locally advanced rectal cancer patients", "conditions": "100 mg, together with: capecitabine and radiotherapy", "quantity": "drug-related lymphopenia incidence", "result": "17%"}
{"SMILES": "COc1cc2c3c(c(=O)oc2c(C2OCCCO2)c1O)CN(C)CC3", "assay": "HPLC", "test system": "RPMI medium", "conditions": "concentration not given, 96 h, 37 °C", "quantity": "acetal hydrolysis", "result": "~70%"}
{"SMILES": "C=CC(=O)NC1CCN(c2ncc3ncnc(Nc4ccc(Oc5ccc6c(c5)ncn6C)c(C)c4)c3n2)CC1", "test system": "healthy male humans", "conditions": "oral, 240 mg", "quantity": "participants with nasal congestion TEAE", "result": "6.3%"}
{"SMILES": "CCc1cc(C(=O)NC)c2nccc(N3CCc4c(cc(Cn5ccnc5)cc4-c4cn(C)nc4C(F)(F)F)C3=O)c2c1", "test system": "Sprague Dawley rat", "conditions": "oral, 50 mg/kg once daily, 7 days", "quantity": "spleen weight", "result": "0.624 ± 0.093 g"}
{"SMILES": "C[C@H]1O[C@@H](O[C@H]2[C@@H](O)C[C@H](O[C@H]3[C@@H](O)C[C@H](O[C@H]4CC[C@@]5(C)[C@H](CC[C@@H]6[C@@H]5C[C@@H](O)[C@]5(C)[C@@H](C7=CC(=O)OC7)CC[C@]65O)C4)O[C@@H]3C)O[C@@H]2C)C[C@H](O)[C@@H]1O", "assay": "refers to: thirst", "test system": "healthy men", "conditions": "oral, dose not given, 8 days, treatment-emergent, crossover trial", "quantity": "subjects with adverse event", "result": "0%"}
{"SMILES": "CCc1c(-c2ccccc2)c(-c2ccccc2)nn1-c1ccccc1-c1cccc(OCC(=O)O)c1", "test system": "Sprague-Dawley rat, stomach", "conditions": "oral, 10 mg/kg, 8 h", "quantity": "concentration", "result": "717 ng/g and 922 ng/g"}
{"SMILES": "CCO[C@H]1CCN(Cc2c(OC)cc(C)c3[nH]ccc23)[C@H](c2ccc(C(=O)O)cc2)C1", "test system": "severe hepatic impairment patients", "conditions": "oral, 200 mg, geometric mean", "quantity": "unbound AUC(0-t)", "result": "13700 ng·h/mL"}
{"SMILES": "N=C(N)NCCNC(=O)C1(Nc2ccccc2)CCN(Cc2ccccc2)CC1", "test system": "male Sprague-Dawley rats, plasma", "conditions": "oral, 50 mg/kg", "quantity": "half-life", "result": "6 min"}
{"SMILES": "Cc1cc(-c2nnc(N)nc2-c2ccc(F)cc2)cc(Cl)n1", "assay": "refers to: Hyperthyroidism", "test system": "IO-naive mCRPC patients, male", "conditions": "oral, dose not given, treatment-related, grade 1", "quantity": "patients with immune-mediated AE", "result": "0%"}
{"SMILES": "CO[C@H]1C[C@@H]2CC[C@@H](C)[C@@](O)(O2)C(=O)C(=O)N2CCCC[C@H]2C(=O)O[C@H]([C@H](C)C[C@@H]2CC[C@@H](OC(=O)NCCOCCOCCOCCOCCOCCOCCOCCOCCC(=O)N3CCc4cc(Cn5nc(-c6ccc7oc(N)nc7c6)c6c(N)ncnc65)ccc4C3)[C@H](OC)C2)C[C@@H](O)[C@H](C)/C=C(\\C)[C@@H](O)[C@@H](OC)C(=O)[C@H](C)C[C@H](C)/C=C/C=C/C=C/1C", "test system": "human patients, plasma", "conditions": "intravenous, 12 mg, cycle 1 day 15", "quantity": "unbound Cmax", "result": "24.1 nM"}
{"SMILES": "CCOc1c([C@H](C)n2nc(C)c3c(N)ncnc32)cc(Cl)c(F)c1[C@@H]1CNC(=O)C1", "assay": "refers to: QTcF ≤450 ms", "test system": "previously treated B-cell malignancy", "conditions": "oral, 30 mg once daily, overall population", "quantity": "ECG observations", "result": "92.9%"}
{"SMILES": "CNC(=O)c1ccc(-c2cnc3ncc(Cc4ccc5ncccc5c4)n3n2)cc1F", "assay": "refers to: Dyspepsia", "test system": "cancer patients", "conditions": "oral, dose not given, dose escalation, grade 3-4", "quantity": "patients with adverse event", "result": "0%"}
{"SMILES": "COc1ccc2c(c1)CN(C(=O)CCN1CCC(Cc3ccccc3)CC1)CC[S@@+]2[O-]", "assay": "telemetry", "test system": "conscious male beagle dogs", "conditions": "intravenous, 2 mg/kg, 24 h", "quantity": "systolic blood pressure", "result": "140 ± 14 mmHg"}
{"SMILES": "C=CC(=O)Nc1cc(Nc2nccc(-c3cn(C4CC4)c4ccccc34)n2)c(OC)cc1N(C)CCN(C)C", "test system": "BALB/c nude mouse, LU0387 xenograft, blood", "conditions": "oral, 40 mg/kg", "quantity": "NRBC#", "result": "0.022 ± 0.0049 g/L"}
{"SMILES": "O=C1CCc2ccc(OCCCCN3CCN(c4cccc(Cl)c4Cl)CC3)cc2N1", "assay": "refers to: Xerostomia", "test system": "patients, CYP2D6 normal metabolizers", "conditions": "dose not given, long-acting oral or depot", "quantity": "adverse event incidence", "result": "7%"}
{"SMILES": "CNCc1ccc(-c2[nH]c3cc(F)cc4c3c2CCNC4=O)cc1", "test system": "patients", "conditions": "oral, 600 mg twice daily, grade 2", "quantity": "cough incidence", "result": "0%"}
{"SMILES": "O=C(COc1ccc(Cl)cc1)NC12CC(c3nnc([C@H]4C[C@@H](OC(F)(F)F)C4)o3)(C1)C2", "assay": "refers to: postural dizziness", "test system": "human", "conditions": "oral, 145 mg once daily, 14 days", "quantity": "adverse event incidence", "result": "14.3%"}
{"SMILES": "CN1C[C@H](COc2nccc3c(NCc4ccco4)cc(Cl)nc23)OC1=O", "test system": "rabbit NZW female, isolated Langendorff heart", "conditions": "10 µM, 15 min", "quantity": "PR interval", "result": "69 ms"}
{"SMILES": "Cc1ccc(C(=O)N(CCCN)C(c2nc3snc(C)c3c(=O)n2Cc2ccccc2)C(C)C)cc1 (stereo not shown)", "test system": "human patients", "conditions": "intravenous, 18 mg/day", "quantity": "grade ≥3 dysphagia patients", "result": "0%"}
{"SMILES": "Cc1c(-c2ccc(N3CCc4cccc(C(=O)Nc5nc6ccccc6s5)c4C3)nc2C(=O)O)cnn1CC12CC3(C)CC(C)(C1)CC(OCCNCC[C@H](O)CO)(C3)C2", "test system": "beagle dog, anaesthetised", "conditions": "intravenous infusion, 0.1 mg/kg/min, 60 min", "how to read": "reference: baseline", "quantity": "mean arterial pressure change", "result": "-1 mmHg"}
{"SMILES": "C[C@H](CCC(=O)NCC(=O)O)[C@H]1CC[C@H]2[C@@H]3CC[C@@H]4C[C@H](O)CC[C@]4(C)[C@H]3CC[C@]12C", "test system": "human, plasma", "conditions": "endogenous baseline diurnal", "how to read": "reference: daily mean concentration", "quantity": "relative peak deviation", "result": "180 ± 20%"}
{"SMILES": "C[C@H]1CN(C(=O)CC#N)[C@]12CCN(c1ncnc3[nH]ccc13)C2", "assay": "IL-4 secretion", "test system": "human whole blood", "conditions": "blood/plasma ratio corrected", "quantity": "IC80", "result": "0.057 µg/mL"}
{"SMILES": "COc1ccc2[nH]c([S+]([O-])Cc3ncc(C)c(OC)c3C)nc2c1 (stereo not shown)", "test system": "healthy Chinese volunteers, CYP2C19 rapid metabolizers", "conditions": "oral, 20 mg, fasted", "quantity": "t1/2", "result": "29.4 min"}
{"SMILES": "CC(C)(C(=O)N1CCOc2c(C#N)cncc2C1)C(F)F", "assay": "refers to: Investigations", "test system": "human", "conditions": "oral, 20 mg once daily, 14 days, multiple ascending dose", "quantity": "subjects with adverse event", "result": "0%"}
{"SMILES": "Cc1ccc([C@@H]2O[C@H](CO)[C@@H](O)[C@H](O)[C@H]2O)cc1Cc1ccc(-c2ccc(F)cc2)s1", "test system": "Japanese type 2 diabetes patients", "conditions": "200 mg, day 5, 24 h urine collection", "how to read": "reference: baseline", "quantity": "urinary calcium excretion change", "result": "-30.9 mg"}
{"SMILES": "NC1(C(=O)N[C@@H](CCO)c2ccc(Cl)cc2)CCN(c2ncnc3[nH]ccc23)CC1", "test system": "human patients, plasma", "conditions": "480 mg twice daily, day 8, continuous dosing", "quantity": "geometric mean Cmax", "result": "2030 ng/mL"}
{"SMILES": "CSc1cc(C)nc(SC)c1NC(=O)CN1CCN(CCSc2nc3ccccc3[nH]2)CC1.Cl", "test system": "mouse Crl:CD1 (ICR) female, cerebrum", "conditions": "intranasal, 50 µL of 3.24 mg/mL in 0.01 N HCl daily, 120 min, 7 days dosing", "quantity": "concentration", "result": "5.8 ng/g and 1.2 ng/g and 1.5 ng/g and 0.8 ng/g"}
{"SMILES": "O=C(N[C@H](Cc1c[nH]c2ccccc12)C(=O)Nc1ccncc1)c1ccc(-c2ccc(F)c(C(F)(F)F)c2)cc1F", "test system": "Swiss Webster mouse, female, plasma", "conditions": "oral, 50 mg/kg, 2 h, 20% HPβCD vehicle", "quantity": "concentration", "result": "1390 nM"}
{"SMILES": "CCCCCCCOc1ccc(CCC(N)(CO)CO)cc1C(F)(F)F.Cl", "test system": "Sprague-Dawley rat, male, heart", "conditions": "oral, 1 mg/kg", "quantity": "tlast", "result": "48 h"}
{"SMILES": "N#C[C@@]1(c2ccc3c(N)ncnn23)O[C@H](CO)[C@@H](O)[C@H]1O", "test system": "human plasma", "conditions": "1 to 100 µM, mean over concentrations", "quantity": "unbound fraction", "result": 0.846}
{"SMILES": "CC(C)n1c(Nc2cccnc2)nc2cnc(Nc3ccc(N4CCN(C)CC4)cc3)nc21", "assay": "refers to: nausea", "test system": "healthy male subjects", "conditions": "oral, 100 mg, study, together with: itraconazole", "quantity": "subjects with adverse event", "result": "0%"}
{"note": "For quick reference, copied from above:"}
{"SMILES": "COc1ccc2[nH]c([S+]([O-])Cc3ncc(C)c(OC)c3C)nc2c1 (stereo not shown)", "test system": "healthy Chinese volunteers, CYP2C19 rapid metabolizers", "conditions": "oral, 20 mg, fasted", "quantity": "t1/2", "result": "29.4 min"}
{"SMILES": "COc1ccc([C@@H](O)c2cc(-c3ncnc4cc(N5CCOCC5)ccc34)c(F)cc2Cl)nn1", "test system": "locally advanced rectal cancer patients", "conditions": "100 mg, together with: capecitabine and radiotherapy", "quantity": "drug-related lymphopenia incidence", "result": "17%"}
{"SMILES": "COc1ccc2c(c1)CN(C(=O)CCN1CCC(Cc3ccccc3)CC1)CC[S@@+]2[O-]", "assay": "telemetry", "test system": "conscious male beagle dogs", "conditions": "intravenous, 2 mg/kg, 24 h", "quantity": "systolic blood pressure", "result": "140 ± 14 mmHg"}
{"SMILES": "Cc1cc(NC2CCN(C(=O)OC3CCN(C(=O)/C=C/CN(C)C)C3)CC2)n2ncc(C(C)C)c2n1 (stereo not shown)", "assay": "CTCAE v4.0, refers to: Anemia", "test system": "patients with advanced solid tumours", "conditions": "oral, dose not given, TIW, grade 3 or higher", "quantity": "patients with TEAE", "result": "9%"}
